Measured values gathered from unrelated publications.
Numbered parts are unrelated; each lists some results of a single study. Substitutions count along the parent as printed.

Block 1
Target: ABI1, truncated, D143A, DHFR fusion (Arabidopsis thaliana)
Technique: DHFR PCA, deep sequencing
Sample: yeast
Setting: methotrexate growth selection, single substitutions
With: (+)-ABA 0.032 µM
Reference: wild-type fitted maximum
Reading: higher = stronger binding
Measurement: relative binding score
Parent: PYL1, truncated, DHFR fusion (Arabidopsis thaliana); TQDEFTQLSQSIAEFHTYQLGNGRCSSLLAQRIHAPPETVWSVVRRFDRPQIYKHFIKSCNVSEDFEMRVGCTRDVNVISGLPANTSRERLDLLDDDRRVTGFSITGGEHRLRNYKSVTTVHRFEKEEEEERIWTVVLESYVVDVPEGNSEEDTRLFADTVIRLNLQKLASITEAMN
S117C: -0.85%
S87I: 50.8%
S26R: 1.98%
D65E: 10.4%
S59N: 7.81%
E38D: 23.4%
T120Q: 0.515%
Q19W: 8.16%
W134G: 15.4%
F66T: 19.6%
G21E: 32.5%
F15I: -6.18%
E109W: -1.83%
H55M: 26.6%
A35Y: -2.92%
I33V: 7.59%

Block 2
Target: CREB5, bZIP domain (human)
Technique: DHFR protein complementation
Sample: yeast
Setting: single substitutions, most at no-binding floor
Reference: wild-type JUN-FOS pair
Reading: higher = stronger binding
Measurement: binding fitness
Parent: JUN, bZIP domain (human); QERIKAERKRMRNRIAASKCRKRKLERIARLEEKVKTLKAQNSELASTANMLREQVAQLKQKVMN; partner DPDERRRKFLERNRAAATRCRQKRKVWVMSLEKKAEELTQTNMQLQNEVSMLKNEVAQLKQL
A29E: -0.33 natural log
E44Y: -0.625 natural log
T48G: -1.19 natural log
A49N: -1.24 natural log
V56F: -1.08 natural log
K34A: -0.466 natural log
Q55A: -0.553 natural log
L38T: -1.34 natural log
L52A: -1.36 natural log
L52Q: -1.45 natural log
I28H: -0.401 natural log
K34N: -0.613 natural log
A29G: -0.476 natural log
A46V: -0.245 natural log
V35M: -0.716 natural log
M51W: -0.5 natural log
L45S: -1.28 natural log
Q55G: -1.31 natural log
L31V: -0.88 natural log
A49V: -0.536 natural log
K34H: -0.183 natural log
E33Y: -0.944 natural log
A49I: -0.486 natural log
Q41G: -1.1 natural log

Block 3
Target: Prothrombin, mature alpha-thrombin (F2, Homo sapiens, UniProt P00734)
Technique: aptamer microarray, sandwich
Molecule type: DNA with 2'F-ANA
Sample: in vitro
Tested at: 200 nM
Setting: whole 15-mer aptamer, many near background
With: Cy3 exosite-II aptamer, 400 nM
Reading: higher = stronger binding
Measurement: mean fluorescence intensity
Strand: GGTTGGTGTGGTTGG
2'F-ANA at 2 5 7 9 10 12: 52.8 a.u.
2'F-ANA at 3 5 8 12 13 14 15: 66.3 a.u.
2'F-ANA at 4 5 14: 46.6 a.u.
2'F-ANA at 1 5 8 9 12 13: 83.2 a.u.
2'F-ANA at 2 4 6 8 11 15: 234 a.u.
2'F-ANA at 6 11 13 14 15: 141 a.u.
2'F-ANA at 2 3 4 5 6 9 11 13: 61.9 a.u.
2'F-ANA at 7 8 9 10 11 12 13 14: 116 a.u.
2'F-ANA at 1 3 5 6 9 10 11 15: 64.3 a.u.
2'F-ANA at 1 2 3 4 5 6 7 9 13 14 15: 50 a.u.
2'F-ANA at 2 5 9 10 12 14 15: 45.5 a.u.
2'F-ANA at 1 2 4 5 9 10 11 12 14 15: 51.4 a.u.
2'F-ANA at 1 4 7 8 9 14 15: 71.4 a.u.
2'F-ANA at 1 2 7 8 9 11 12 13 15: 254 a.u.
2'F-ANA at 6 7 9 11 12 13 15: 412 a.u.
2'F-ANA at 1 2 7 9 10 12 13 14 15: 48.7 a.u.
2'F-ANA at 2 6 8 9 10 15: 117 a.u.

Block 4
Target: CCND1, cyclin fold, Cln2 fusion (human)
Technique: yeast growth competition, sequencing
Sample: yeast
Setting: weak parent motif
Reference: not given
Reading: higher = stronger binding
Measurement: normalised enrichment score
Parent: SGO1 docking peptide (human); PLAKRALKYTDEK; partner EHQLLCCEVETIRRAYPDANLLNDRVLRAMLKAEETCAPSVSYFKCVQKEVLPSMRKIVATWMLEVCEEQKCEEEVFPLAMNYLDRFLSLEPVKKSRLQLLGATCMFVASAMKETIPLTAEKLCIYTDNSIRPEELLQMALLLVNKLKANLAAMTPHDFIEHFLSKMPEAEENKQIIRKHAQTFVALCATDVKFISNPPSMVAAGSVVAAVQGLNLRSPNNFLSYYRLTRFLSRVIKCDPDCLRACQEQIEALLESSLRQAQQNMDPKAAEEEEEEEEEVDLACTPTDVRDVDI
L2A: 0.217
Y9A: 0.17
T10A: 0.382
D11A: 0.00316
E12A: 0.06
R5A: -0.134

For quick reference, copied from above (block 2):
Q55G: -1.31 natural log
L31V: -0.88 natural log
A49V: -0.536 natural log
K34H: -0.183 natural log
